Published values from different studies.
Protocols differ between the studies behind these lines. ± marks the error that the study gave.
OPRM1: Mu-type opioid receptor (OPRM1, Homo sapiens, UniProt P35372)
UniProt P35372, sequence (whole entry, looked up): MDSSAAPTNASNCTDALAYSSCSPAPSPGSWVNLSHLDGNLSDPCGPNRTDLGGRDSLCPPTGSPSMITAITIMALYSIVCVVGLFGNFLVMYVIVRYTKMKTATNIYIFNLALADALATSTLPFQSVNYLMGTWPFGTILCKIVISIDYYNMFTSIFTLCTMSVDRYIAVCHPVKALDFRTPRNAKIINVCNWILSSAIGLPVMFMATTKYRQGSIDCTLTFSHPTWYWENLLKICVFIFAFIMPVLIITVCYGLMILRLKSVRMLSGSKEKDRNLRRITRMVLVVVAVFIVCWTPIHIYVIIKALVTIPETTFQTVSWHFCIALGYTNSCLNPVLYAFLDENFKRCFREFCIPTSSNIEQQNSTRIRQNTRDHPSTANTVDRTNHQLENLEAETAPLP
UniProt P33535, sequence (whole entry, looked up): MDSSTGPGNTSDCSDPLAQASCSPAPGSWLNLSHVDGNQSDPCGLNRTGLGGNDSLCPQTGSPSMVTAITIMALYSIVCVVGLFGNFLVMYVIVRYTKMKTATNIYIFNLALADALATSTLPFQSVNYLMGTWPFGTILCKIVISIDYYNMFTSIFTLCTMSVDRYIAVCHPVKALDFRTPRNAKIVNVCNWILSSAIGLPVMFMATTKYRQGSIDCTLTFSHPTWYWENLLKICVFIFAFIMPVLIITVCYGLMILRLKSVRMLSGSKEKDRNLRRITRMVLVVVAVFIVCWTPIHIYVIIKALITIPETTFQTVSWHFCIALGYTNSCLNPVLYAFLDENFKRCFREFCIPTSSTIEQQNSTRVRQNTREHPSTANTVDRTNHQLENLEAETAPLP
UniProt P42336, sequence (whole entry, looked up): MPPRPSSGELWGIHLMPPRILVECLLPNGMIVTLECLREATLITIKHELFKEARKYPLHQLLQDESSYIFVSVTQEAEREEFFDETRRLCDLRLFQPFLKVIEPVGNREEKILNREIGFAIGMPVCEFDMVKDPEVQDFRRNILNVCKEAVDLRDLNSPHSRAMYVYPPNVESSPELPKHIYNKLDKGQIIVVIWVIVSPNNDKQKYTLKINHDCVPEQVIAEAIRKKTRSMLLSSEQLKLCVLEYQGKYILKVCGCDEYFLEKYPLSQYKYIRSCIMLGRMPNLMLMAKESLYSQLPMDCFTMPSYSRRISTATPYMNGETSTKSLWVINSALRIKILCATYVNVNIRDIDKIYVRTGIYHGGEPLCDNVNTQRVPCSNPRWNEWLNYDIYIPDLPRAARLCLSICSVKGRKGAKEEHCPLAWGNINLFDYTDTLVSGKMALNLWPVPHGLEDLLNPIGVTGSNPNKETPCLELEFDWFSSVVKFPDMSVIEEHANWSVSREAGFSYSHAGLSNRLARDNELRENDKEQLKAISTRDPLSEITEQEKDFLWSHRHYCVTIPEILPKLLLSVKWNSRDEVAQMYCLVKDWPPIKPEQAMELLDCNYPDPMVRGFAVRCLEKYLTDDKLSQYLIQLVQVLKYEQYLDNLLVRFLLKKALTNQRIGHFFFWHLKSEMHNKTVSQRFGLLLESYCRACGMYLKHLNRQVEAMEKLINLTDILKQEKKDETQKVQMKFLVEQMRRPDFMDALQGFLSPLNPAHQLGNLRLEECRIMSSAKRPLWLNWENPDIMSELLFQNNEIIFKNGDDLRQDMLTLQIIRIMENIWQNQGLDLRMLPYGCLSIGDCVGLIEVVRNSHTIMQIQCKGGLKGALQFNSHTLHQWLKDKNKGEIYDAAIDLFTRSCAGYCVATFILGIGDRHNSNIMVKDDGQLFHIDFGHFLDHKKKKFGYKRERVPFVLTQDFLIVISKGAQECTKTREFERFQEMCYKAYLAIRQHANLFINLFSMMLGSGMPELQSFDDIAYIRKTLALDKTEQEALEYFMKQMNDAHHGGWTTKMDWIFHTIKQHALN
UniProt P70180, sequence (whole entry, looked up): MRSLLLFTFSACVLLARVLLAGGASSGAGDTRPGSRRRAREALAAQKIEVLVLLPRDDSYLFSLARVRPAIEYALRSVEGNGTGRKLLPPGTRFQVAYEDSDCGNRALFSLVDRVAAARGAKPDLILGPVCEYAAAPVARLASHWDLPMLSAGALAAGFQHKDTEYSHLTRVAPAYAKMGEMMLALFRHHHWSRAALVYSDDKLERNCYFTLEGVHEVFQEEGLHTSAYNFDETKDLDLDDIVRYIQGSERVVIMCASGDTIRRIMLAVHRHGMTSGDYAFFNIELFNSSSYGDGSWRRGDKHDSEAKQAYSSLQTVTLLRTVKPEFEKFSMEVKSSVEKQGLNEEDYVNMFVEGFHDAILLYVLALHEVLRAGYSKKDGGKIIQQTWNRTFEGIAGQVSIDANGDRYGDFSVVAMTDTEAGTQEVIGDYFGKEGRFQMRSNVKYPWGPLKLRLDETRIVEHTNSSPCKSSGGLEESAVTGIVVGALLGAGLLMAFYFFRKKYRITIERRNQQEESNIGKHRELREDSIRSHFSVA
UniProt P47871, sequence (whole entry, looked up): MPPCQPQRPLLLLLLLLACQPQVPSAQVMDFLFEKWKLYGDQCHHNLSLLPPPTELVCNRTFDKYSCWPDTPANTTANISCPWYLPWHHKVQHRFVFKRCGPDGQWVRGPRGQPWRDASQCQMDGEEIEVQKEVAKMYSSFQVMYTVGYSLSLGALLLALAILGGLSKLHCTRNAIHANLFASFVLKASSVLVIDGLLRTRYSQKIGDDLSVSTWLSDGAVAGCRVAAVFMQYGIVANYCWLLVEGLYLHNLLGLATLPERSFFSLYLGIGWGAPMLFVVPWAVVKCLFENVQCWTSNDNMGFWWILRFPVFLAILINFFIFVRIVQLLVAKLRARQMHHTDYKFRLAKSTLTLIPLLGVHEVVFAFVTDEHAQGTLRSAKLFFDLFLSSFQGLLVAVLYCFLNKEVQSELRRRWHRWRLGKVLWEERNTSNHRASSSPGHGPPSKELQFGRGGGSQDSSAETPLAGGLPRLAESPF
UniProt P34975, sequence (whole entry, looked up): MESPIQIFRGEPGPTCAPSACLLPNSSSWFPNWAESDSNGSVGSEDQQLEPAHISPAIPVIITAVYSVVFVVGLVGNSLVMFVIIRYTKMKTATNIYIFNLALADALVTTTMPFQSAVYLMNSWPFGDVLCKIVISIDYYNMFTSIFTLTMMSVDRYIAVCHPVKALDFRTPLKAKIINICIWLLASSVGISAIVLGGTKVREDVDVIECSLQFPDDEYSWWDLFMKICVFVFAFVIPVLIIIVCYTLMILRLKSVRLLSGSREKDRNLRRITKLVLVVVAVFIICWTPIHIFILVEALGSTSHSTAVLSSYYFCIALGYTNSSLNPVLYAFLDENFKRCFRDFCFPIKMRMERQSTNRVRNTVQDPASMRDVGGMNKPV
UniProt P43220, sequence (whole entry, looked up): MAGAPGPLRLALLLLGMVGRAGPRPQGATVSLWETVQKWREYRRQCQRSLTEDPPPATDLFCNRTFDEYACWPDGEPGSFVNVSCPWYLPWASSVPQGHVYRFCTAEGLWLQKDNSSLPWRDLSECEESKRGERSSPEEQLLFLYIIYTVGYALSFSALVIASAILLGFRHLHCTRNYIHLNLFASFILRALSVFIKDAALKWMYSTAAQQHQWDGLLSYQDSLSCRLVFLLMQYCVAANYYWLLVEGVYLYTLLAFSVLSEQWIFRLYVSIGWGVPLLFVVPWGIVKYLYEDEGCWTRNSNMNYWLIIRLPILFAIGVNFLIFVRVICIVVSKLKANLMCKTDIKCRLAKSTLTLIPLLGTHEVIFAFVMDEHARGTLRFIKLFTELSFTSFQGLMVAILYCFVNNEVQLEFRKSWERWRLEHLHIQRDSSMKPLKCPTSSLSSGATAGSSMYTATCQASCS

Compound	target	test	system	setting	how to read	measurement	result
CCCCCCCCCCCCCCCC(=O)N[C@@H](CCC(=O)NCCCC[C@H](NC(=O)[C@H](CO)NC(=O)[C@@H]1CCCN1C(=O)[C@@H]1CCCN1C(=O)[C@@H]1CCCN1C(=O)[C@H](C)NC(=O)CNC(=O)[C@H](CO)NC(=O)[C@H](CO)NC(=O)[C@@H]1CCCN1C(=O)CNC(=O)CNC(=O)[C@H](C)NC(=O)[C@H](CC(C)C)NC(=O)[C@H](CC(C)C)NC(=O)[C@H](Cc1c[nH]c2ccccc12)NC(=O)[C@H](CC(N)=O)NC(=O)[C@@H](NC(=O)[C@H](Cc1ccccc1)NC(=O)[C@H](CCC(=O)O)NC(=O)C(C)(C)NC(=O)[C@H](C)NC(=O)[C@H](C)NC(=O)[C@H](CCC(N)=O)NC(=O)[C@H](CCCCN)NC(=O)[C@H](CC(=O)O)NC(=O)[C@H](CC(C)C)NC(=O)[C@H](Cc1ccc(O)cc1)NC(=O)[C@@H](NC(=O)[C@H](CO)NC(=O)[C@H](Cc1ccc(O)cc1)NC(=O)[C@H](CC(=O)O)NC(=O)[C@H](CO)NC(=O)[C@@H](NC(=O)[C@H](Cc1ccccc1)NC(=O)[C@@H](NC(=O)CNC(=O)[C@H](CCC(=O)O)NC(=O)CSCC(=O)NCCN1C(=O)CSC1=O)[C@@H](C)O)[C@@H](C)O)[C@@H](C)CC)C(C)C)C(N)=O)C(=O)O	Glucagon-like peptide 1 receptor (GLP1R, Homo sapiens, UniProt P43220)	β-arrestin recruitment, agonist				Emax	< 5%
NS(=O)(=O)c1ccc(NC(=O)c2ccccc2SSc2ccccc2C(=O)Nc2ccc(S(N)(=O)=O)cc2)cc1	Gag-Pol polyprotein, integrase (gag-pol, Human immunodeficiency virus type 1 group M subtype B, UniProt P04585, C1427S)	DNA binding, fluorescence anisotropy	HIV-1	compound:integrase ratio 3:1, added: 10 mM Mn2+, U5 DNA		Hill coefficient	1.2
CC[C@H](C)[C@H](NC(=O)[C@H](CCCN)NC(=O)[C@H](CC(=O)O)NC(=O)[C@H](CC(C)C)NC(=O)C(C)(CC(C)C)NC(=O)[C@@H](NC(=O)[C@H](CO)NC(=O)[C@H](Cc1ccc(O)cc1)NC(=O)[C@H](CC(=O)O)NC(=O)[C@H](CO)NC(=O)[C@@H](NC(=O)[C@H](Cc1ccccc1)NC(=O)[C@@H](NC(=O)CNC(=O)[C@H](CCC(=O)O)NC(=O)C(C)(C)NC(=O)[C@@H](N)Cc1ccc(O)cc1)[C@@H](C)O)[C@@H](C)CC)[C@@H](C)CC)C(=O)N[C@@H](Cc1c[nH]cn1)C(=O)N[C@@H](CCC(N)=O)C(=O)NC(C)(C)C(=O)N[C@@H](CC(=O)O)C(=O)N[C@@H](Cc1ccccc1)C(=O)N[C@H](C(=O)N[C@@H](CCC(=O)O)C(=O)N[C@@H](Cc1ccc(O)cc1)C(=O)N[C@@H](CCCCNC(=O)COCCOCCNC(=O)COCCOCCNC(=O)CC[C@H](NC(=O)CCCCCCCCCCCCCCCCCCC(=O)O)C(=O)O)C(=O)N[C@@H](CC(C)C)C(=O)N[C@@H](CCC(=O)O)C(=O)NCC(=O)NCC(=O)N1CCC[C@H]1C(=O)N[C@@H](CO)C(=O)N[C@@H](CO)C(=O)NCC(=O)N[C@@H](C)C(=O)N1CCC[C@H]1C(=O)N1CCC[C@H]1C(=O)N1CCC[C@H]1C(=O)N[C@@H](CO)C(N)=O)C(C)C (stereo partly drawn)	Glucagon receptor (GCGR, Homo sapiens, UniProt P47871)	cAMP accumulation, agonist	HEK293	9.95 µM		stimulation	0.7 ± 0.9%
C[C@@H](NC(=O)[C@@H](N)Cc1ccc(O)cc1)C(=O)N[C@@H](Cc1ccccc1)C(=O)NCC(=O)N[C@@H](Cc1ccc(O)cc1)C(=O)N1CCC[C@H]1C(=O)N[C@@H](CO)C(N)=O	OPRM1	calcium signal, agonist				Emax	186%
CC[C@H](C)[C@H](N)C(=O)N[C@@H](CO)C(=O)N[C@@H](Cc1ccccc1)C(=O)N[C@@H]1CSCc2ccc(cc2)-c2ccc(cc2)CSC[C@@H](C(=O)N[C@@H](CCC(=O)O)C(=O)N[C@@H](CO)C(=O)NCC(=O)N[C@@H](CO)C(N)=O)NC(=O)[C@H](Cc2ccc(O)cc2)NC(=O)[C@H](Cc2ccc(O)cc2)NC(=O)[C@H](CC(=O)O)NC(=O)[C@H](CC(C)C)NC(=O)[C@H](CC(C)C)NC(=O)[C@H](CCC(=O)O)NC1=O	Envelope glycoprotein gp160 (env, Human immunodeficiency virus type 1 group M subtype B, UniProt P35961)	binding, SPR				koff	0.00553 s⁻¹
CC(C)C[C@@H]1NC(=O)[C@@H](NC(=O)[C@H](CC(=O)O)NC(=O)[C@H](C)N)CSSC[C@@H]2NC(=O)[C@@H]3CSSC[C@@H](C(=O)N[C@@H](CCCNC(=N)N)C(=O)O)NC(=O)[C@H](CCCNC(=N)N)NC(=O)[C@H](CCC(N)=O)NC(=O)[C@H](CCC(=O)O)NC(=O)[C@@H]4CCCN4C(=O)[C@H](CC(N)=O)NC(=O)[C@H]([C@@H](C)O)NC(=O)CNC(=O)[C@H](CCCNC(=N)N)NC(=O)[C@H](CCCNC(=N)N)NC(=O)[C@H](CO)NC(=O)[C@H](CSSC[C@H](NC(=O)[C@H](CC(C)C)NC(=O)[C@H](CCCCN)NC(=O)[C@H](CC(C)C)NC(=O)[C@H](Cc4c[nH]cn4)NC(=O)[C@H](C)NC1=O)C(=O)N[C@@H](CCCCN)C(=O)N[C@@H](CCCCN)C(=O)N[C@@H](CC(N)=O)C(=O)N[C@@H](CCCCN)C(=O)N[C@@H](CC(=O)O)C(=O)N3)NC(=O)[C@H](CCCCN)NC(=O)[C@H](CCCCN)NC(=O)[C@H](CO)NC2=O	Ryanodine receptor 1 (RYR1, Oryctolagus cuniculus, UniProt P11716)	activator		100 nM, pCa 7	relative to: control at pCa 5	specific [3H]ryanodine binding	96.6 ± 8.3%
C[C@H](Nc1ncnc(N)c1C#N)c1c(-c2ccccc2)[nH]c2c(Cl)cccc2c1=O	Phosphatidylinositol 4,5-bisphosphate 3-kinase catalytic subunit alpha isoform (PIK3CA, Homo sapiens, UniProt P42336)	enzyme activity			relative to: IC50 PIK3CA over PI3Kδ	selectivity ratio	306
CC[C@H](C)[C@@H]1NC(=O)[C@H](CCCNC(=N)N)NC(=O)[C@H](CC(=O)O)NC(=O)[C@H]([C@@H](C)CC)NC(=O)[C@H](CCCNC(=N)N)NC(=O)CNC(=O)CNC(=O)[C@H](Cc2ccccc2)NC(=O)[C@@H](NC(=O)[C@H](CO)NC(=O)[C@H](CO)NC(=O)[C@H](CCCNC(=N)N)NC(=O)CN2CCN(CC(=O)O)CCN(CC(=O)O)CCN(CC(=O)O)CC2)CSSC[C@@H](C(N)=O)NC(=O)[C@H](C)NC(=O)CNC1=O [copper-64 labelled]	Atrial natriuretic peptide receptor 3 (Mus musculus, UniProt P70180)	PET/CT	C57BL/6 mice hind limb ischemia, nonischemic limb	iv, day 7 after surgery		tracer uptake	0.77 ± 0.03 %ID/g
Cc1cc(O)cc(C)c1C[C@H](N)C(=O)NCC(=O)NCC(=O)N[C@@H](Cc1ccccc1)C(=O)N[C@H](C(=O)NCC(=O)N[C@@H](C)C(=O)N[C@@H](CCCNC(=N)N)C(=O)N[C@@H](CCCCN)C(=O)N[C@@H](CO)C(=O)N[C@@H](C)C(=O)N[C@@H](CCCNC(=N)N)C(=O)N[C@@H](CCCCN)C(N)=O)[C@@H](C)O	OPRM1	calcium mobilization, agonist	CHO cells expressing Gαqi5 chimera		relative to: basal	Emax	306 ± 10%
CC[C@H](C)[C@H](NC(=O)[C@H](CCCNC(=N)N)NC(=O)[C@H](CCCNC(=N)N)NC(=O)[C@H](CC(C)C)NC(=O)[C@H](Cc1ccccc1)NC(=O)CNC(=O)CNC(=O)[C@@H](N)Cc1ccc(O)cc1)C(=O)N[C@@H](CCCNC(=N)N)C(=O)N1CCC[C@H]1C(=O)N[C@@H](CCCCN)C(=O)N[C@@H](CC(C)C)C(=O)N[C@@H](CCCCN)C(N)=O	Kappa-type opioid receptor (Oprk1, Rattus norvegicus, UniProt P34975)				relative to: membrane potential over GTPγS	potency ratio	~10
CSCC[C@@H]1NC(=O)[C@H](Cc2ccccc2)NC(=O)CNC(=O)[C@H](NC(=O)[C@@H](N)Cc2ccc(O)cc2)CSSC[C@H](C(=O)N[C@@H](Cc2c[nH]c3ccccc23)C(=O)NCc2cc(C(F)(F)F)cc(C(F)(F)F)c2)NC(=O)[C@@H]2CCCN2C1=O	Mu-type opioid receptor (Oprm1, Rattus norvegicus, UniProt P33535)	GTPγS binding, agonist, radiometric		cell membranes		Emax	9%
CC[C@H](C)[C@H](N)C(=O)N[C@@H](CC(N)=O)C(=O)N[C@@H](CC(N)=O)C(=O)N[C@H](C(=O)N1C[C@@H](n2cc([C]34[CH]5[CH]6[CH]7[CH]3[Fe]6754389%10[CH]4[CH]3[CH]8[CH]9[CH]4%10)nn2)C[C@H]1C(=O)N[C@@H](Cc1cn(C)c2ccccc12)C(N)=O)[C@@H](C)CC (stereo partly drawn)	Envelope glycoprotein gp160, gp120 (env, Human immunodeficiency virus type 1 group M subtype B, UniProt P35961, T253A)	ITC		concentration not given, gp120 T257A mutant		binding enthalpy	-11 ± 0.9 kcal/mol
